Published values collected from several papers.
Values joined by “and” are separate records of one study, mostly repeats; a detail may differ. ± gives the spread as reported.
Nuclear receptor subfamily 2 group C member 2 ligand-binding domain: Nuclear receptor subfamily 2 group C member 2, ligand-binding domain (Homo sapiens, UniProt P49116)

Structure (SMILES)	target or system	test	test system	conditions	scale	measurement	value
CC1CCCN(C(=O)c2cc3ncccn3n2)C1 (stereo not shown)	YTH domain-containing protein 1 (Homo sapiens, UniProt Q96MU7)	binding, affinity selection mass spectrometry	–	–	baseline: other proteins in batch	fold enrichment	1.39
CC[C@@H]1C(=O)OC[C@@H]1Cc1cncn1C.Cl	Nuclear receptor subfamily 2 group C member 2 ligand-binding domain	SPR imaging	–	600 nM	–	koff	3.01e-06 s⁻¹
CCC[C@H]1CN(c2cccc(OC(F)(F)F)c2)C(=O)CN1Cc1cncn1Cc1ccc(Br)cc1	Cryptococcus neoformans farnesyltransferase	enzyme activity, inhibitor, fluorescence	–	added: 1 µM FPP, 0.5 µM dansylated peptide	–	IC50	1100 ± 510 nM
Oc1ccc(OCc2ccccc2)cc1	Nuclear receptor subfamily 2 group C member 2 ligand-binding domain	SPR imaging	–	600 nM	–	koff	6.42e-05 s⁻¹
Cc1ncccc1OC[C@@H]1CN(CCN2CCc3ccccc32)CCO1	DRD5 (Homo sapiens, UniProt P21918)	radioligand binding	–	concentration not given, added: [3H]SCH23390	–	inhibition	7.7%
Oc1ccc(/C=C/c2cc(O)cc(O)c2)cc1	O-methyltransferase (Sorghum bicolor, UniProt A0A1B6PFV1)	ITC	–	endothermic site, two-site model, added: SFG	–	-T∆S	-10.9 kcal/mol
CCC1(O)CCCN(C(=O)c2ccc(-c3ccc(F)c(NC(=O)CCl)c3)cc2)C1 (stereo not shown)	DNA dC->dU-editing enzyme APOBEC-3A (Homo sapiens, UniProt P31941)	covalent adduct, intact protein MS	–	1 h, 1-fold, 25 µM	–	unmodified protein	64% and 76%
C#C[C@]1(O)CC[C@H]2[C@@H]3CCc4cc(O)ccc4[C@H]3CC[C@@]21C	Nuclear receptor subfamily 2 group C member 2 ligand-binding domain	SPR imaging	–	600 nM	–	koff	2.01e-07 s⁻¹
CC(C)C[C@@H]1NC(=O)[C@H](C(C)C)NC(=O)CNC(=O)[C@H](CC(N)=O)NC(=O)[C@@H]2CCCN2C(=O)[C@H](Cc2ccc(O)cc2)NC(=O)[C@H](CCCNC(=N)N)NC(=O)[C@H](Cc2ccccc2)NC(=O)[C@@H](NC(=O)[C@H](CCCCN)NC(=O)[C@@H]2CCCN2C(=O)[C@H](C)NC(=O)[C@H](C)NC(=O)[C@@H](N)Cc2ccc(O)cc2)CSSC[C@@H](C(=O)N[C@H](C(N)=O)[C@@H](C)O)NC(=O)[C@H](C)NC1=O	Alpha-2-HS-glycoprotein, asialo (AHSG, Bos taurus, UniProt P12763)	ITC	–	concentration not given, added: asialofetuin	–	binding enthalpy	-1.78 kcal/mol
CCN1CCC[C@H]1CNC(=O)c1c(O)c(Cl)cc(Cl)c1OC	LPAR4 (Homo sapiens, UniProt Q99677)	β-arrestin recruitment, TANGO luminescence, item: GPR23	–	concentration not given	baseline: basal luminescence	log2 fold change	0.125
N[C@H](Cc1ccccc1)C(=O)O	PAL1 (Petroselinum crispum, UniProt P24481, Y110F)	binding, ITC	–	–	–	ΔG	-6.3 kcal/mol
O=P(O)(O)O[C@H]1[C@H](OP(=O)(O)O)[C@@H](OP(=O)(O)O)[C@H](OP(=O)(O)O)[C@@H](OP(=O)(O)O)[C@H]1OP(=O)(O)O	Beta-arrestin-1 (Arrb1, Rattus norvegicus, UniProt P29066)	oligomeric state, SEC-MALS	–	500 µM, 30 min, 4 °C, 100 µM protein injected	–	molecular mass	90.4 kDa
COc1cc2c(NC3CCN(C(C)C)CC3)nc(C3CCCCC3)nc2cc1OCCCN1CCCC1	OCI-Ly1	–	–	0.1 µM, 120 h	–	viability	204%
COc1cc(-c2cc(C(C)=O)n3ccccc23)cc(OC)c1Cn1ccnc1	Bromodomain testis-specific protein, BD2 (BRDT, Homo sapiens, UniProt Q58F21)	–	–	–	–	ΔTm	4.9 °C
CN(C)CCN(C)C(=O)c1ccc(NC(=O)Nc2ccc(-c3nc(N4CCOCC4)c4ccn(CC(F)(F)F)c4n3)cc2)cc1	NUDT1 (Homo sapiens, UniProt P36639)	activator	–	200 µM, screen	–	activity	> 200%
CC[C@H](C)[C@H](NC(=O)[C@H](CCC(=O)O)NC(=O)[C@H](CCC(=O)O)NC(=O)[C@@H]1CCCN1C(=O)[C@H](CC(=O)O)NC(=O)[C@H](C)NC(=O)[C@H](CCC(N)=O)NC(=O)[C@@H](NC(=O)[C@H](C)NC(=O)[C@@H](NC(=O)[C@H](CO)NC(=O)[C@@H](NC(=O)[C@H](CCCCN)NC(=O)[C@@H](N)Cc1ccc(O)cc1)[C@@H](C)O)C(C)C)[C@@H](C)O)C(=O)N[C@H](C(=O)N[C@H](C(=O)N[C@@H](CC(C)C)C(=O)N[C@@H](CC(=O)O)C(=O)N[C@@H](CC(=O)O)C(=O)N[C@@H](CC(=O)O)C(=O)N[C@@H](CC(=O)O)C(=O)O)C(C)C)[C@@H](C)CC	Small ubiquitin-related modifier 1, residues 17-97 (Homo sapiens, UniProt P63165, C52A)	isothermal titration calorimetry	–	pH 7.4, N-terminally truncated SUMO1	–	-TΔS	-13.4 ± 0.1 kcal/mol
O=C(COP(=O)(O)O)[C@@H](O)[C@H](O)[C@H](O)COP(=O)(O)O	DNA-directed RNA polymerase II subunit RPB1 (Homo sapiens, UniProt P24928)	thermal proteome profiling, item: POLR2A	HepG2 cell lysate	concentration not given, 57 over 37 °C, mean	baseline: compound over control	thermal stability ratio	0.546
N#Cc1ccn2c(-c3ccncc3)c(-c3ccc(F)cc3)nc2c1	Serine/threonine-protein kinase CBK1 (CBK1, Candida albicans, UniProt Q5AP53)	kinase binding, competitor, MIB/MS competition, item: CBK1	Candida albicans cell lysate	1 µM	baseline: DMSO	log2 fold change	0.024
O=C1c2ccccc2CCN1CCCCN1CCN(c2cccc(Cl)c2Cl)CC1	HTR1A (Homo sapiens, UniProt P08908)	radioligand binding	–	concentration not given, added: [3H]8-OH-DPAT	–	inhibition	99.5%

Structure (SMILES)	target or system	test	test system	conditions	scale	measurement	value
C[C@H](N)C(=O)N[C@@H](CCCNC(=N)N)C(=O)N[C@H](C(=O)N[C@@H](C)C(=O)N[C@@H](CCC(N)=O)C(=O)N[C@H](C(=O)N[C@@H](C)C(=O)N[C@@H](CCCNC(=N)N)C(=O)N[C@@H](CCCCN)C(=O)N[C@@H](CO)C(=O)O)[C@@H](C)O)[C@@H](C)O	Transcriptional regulator ATRX (ATRX, Homo sapiens, UniProt P46100, F284Y/K251R)	isothermal titration calorimetry	–	concentration not given, pH 7.5, 25.0 °C	–	binding enthalpy	-4.7 kcal/mol
Nc1ncnc2c1ncn2[C@@H]1O[C@H](COP(=O)(O)OP(=O)(O)OP(=O)(O)O)[C@@H](O)[C@H]1O	P2X purinoceptor 7 (P2rx7, Rattus norvegicus, UniProt Q64663, I214A/R125A)	ion current, agonist, two-electrode voltage clamp	Xenopus laevis oocytes	300 µM	baseline: highest concentration response	normalized current	0.991 and 0.907 and 0.959
C[C@@H](c1ccc(-n2cnc3c(N)ncnc32)cc1)N1CCc2nn(C)c(Cc3ccccc3)c2C1=O	ACVR2B (Homo sapiens, UniProt Q13705)	KINOMEscan	–	0.1 µM	baseline: DMSO	remaining binding	76%
CC[C@H](C)[C@@H]1NC(=O)[C@H](Cc2ccc(O)cc2)NC(=O)CSC[C@@H](C(N)=O)NC(=O)CNC(=O)[C@H](Cc2c[nH]cn2)NC(=O)[C@H](CCCNC(=N)N)NC(=O)[C@H](CC(N)=O)NC(=O)[C@@H]2CCCN2C(=O)[C@H](Cc2ccccc2)NC(=O)[C@H]([C@@H](C)O)NC(=O)CNC(=O)[C@H](CC(C)C)NC(=O)[C@@H]2CCCN2C(=O)[C@H]([C@@H](C)O)NC(=O)[C@H](CCCCN)NC1=O	VPS35/VPS29 (Homo sapiens, UniProt Q96QK1+Q9UBQ0)	binding, ITC	–	25 °C, heterodimer	–	-TΔS	1.8 ± 1 kcal/mol
CC[C@@H]1[C@H](F)C(=O)N[C@@H]1COc1nccc2cc(C(N)=O)c(OC)cc12	CDK14 (Homo sapiens, UniProt O94921)	ATP probe binding, KiNativ profiling, item: Lys1 probe site	THP-1 cell lysate	0.2 mM	–	inhibition	-6.5%
Nc1nc2c(ncn2[C@@H]2O[C@H](COP(=O)(O)OP(=O)(O)O)[C@@H](O)[C@H]2O)c(=O)[nH]1	GUK1 (Homo sapiens, UniProt Q16774)	ITC	–	concentration not given	–	ΔG of binding	-6.24 kcal/mol
O=C(O)c1cc2c(c3nc4c(O)cccc4nc13)O[C@@H]1[C@H](O)c3nc4cccc(O)c4nc3C[C@H]21	EIF4E (Homo sapiens, UniProt P06730)	inhibitor, m7GDP cap pull-down	–	concentration not given	–	cap binding	inactive
Cc1cccc(N2CC(C(=O)O)CC2=O)c1 (stereo not shown)	E3 SUMO-protein ligase PIAS1 (PIAS1, Homo sapiens, UniProt O75925)	binding, affinity selection mass spectrometry	–	–	baseline: other proteins in batch	log fold enrichment	-0.0238
Cc1cc(-c2ccnc3[nH]cc(F)c23)cc(F)c1[C@@]1(O)[C@H](C)CN(C(=O)CN)C[C@@H]1C	AKT2 and AKT3	ATP probe binding, KiNativ, item: ATP loop	HEK293T cell lysate	10 µM	–	inhibition	-97.7%
NC(Cc1cc(I)c(Oc2cc(I)c(O)c(I)c2)c(I)c1)C(=O)O (stereo not shown)	SLCO1A2 (Homo sapiens, UniProt P46721)	substrate	COS-1 transfected with SLCO1A2	60 min, 37 °C	baseline: empty vector-transfected cells	uptake	increased
CN1CCN(c2cc(-c3ccncc3)c(-c3ccc4ccccc4c3)nn2)CC1	TRHR (Homo sapiens, UniProt P34981)	agonist, FLIPR	–	12.5 µM	–	activation	-2.1%
O=C1OC(c2ccccc2)=N/C1=C\c1cccc(O)c1	MAL12 (Saccharomyces cerevisiae S288c, UniProt P53341)	inhibitor, Lineweaver-Burk	–	1600 ppm, added: pNPG substrate	–	Vmax	0.191 mM/min
O=C(Cc1ccc(-c2ccccc2)cc1)Nc1cc(C2CCC2)[nH]n1	IKBKB (Homo sapiens, UniProt O14920)	inhibitor	–	concentration not given	–	activity	inactive
N#C[C@@H]1CCCN1C(=O)CNC12CC3CC(CC(O)(C3)C1)C2	Nuclear receptor subfamily 2 group C member 2 ligand-binding domain	SPR imaging	–	600 nM	–	koff	1.4e-06 s⁻¹
CC[S+]([O-])c1nc(-c2ccccc2)cc(C(F)(F)F)n1 (stereo not shown)	Exportin-1 (XPO1, Homo sapiens, UniProt O14980)	nuclear export, high content imaging	HeLa Kyoto reporter	50 µM, 2 h	–	cells with nuclear reporter	2.96% and 0.95% and 4.58%
Nc1ncnc2c1ncn2[C@@H]1O[C@H](COP(=O)(O)CP(=O)(O)OP(=O)(O)O)[C@@H](O)[C@H]1O	P2X purinoceptor 1 (P2RX1, Homo sapiens, UniProt P51575, S286A)	saturation binding	HEK293	103 nM	–	specific binding	5000 CCPM and 11500 CCPM and 5560 CCPM
N#CC[C@H](C1CCCC1)n1cc(-c2ncnc3[nH]ccc23)cn1	Nuclear receptor subfamily 2 group C member 2 ligand-binding domain	SPR imaging	–	600 nM	–	koff	1.57e-06 s⁻¹
NCCS(=O)(=O)O	SLC6A6 (Homo sapiens, UniProt P31641, Y138A)	binding, microscale thermophoresis	–	61 nM, room temperature, added: 50 nM labelled protein	higher = more binding	normalised MST signal	-0.00695

Some of these lines once more:
Structure (SMILES)	target or system	test	test system	conditions	scale	measurement	value
O=C(COP(=O)(O)O)[C@@H](O)[C@H](O)[C@H](O)COP(=O)(O)O	DNA-directed RNA polymerase II subunit RPB1 (Homo sapiens, UniProt P24928)	thermal proteome profiling, item: POLR2A	HepG2 cell lysate	concentration not given, 57 over 37 °C, mean	baseline: compound over control	thermal stability ratio	0.546
N#Cc1ccn2c(-c3ccncc3)c(-c3ccc(F)cc3)nc2c1	Serine/threonine-protein kinase CBK1 (CBK1, Candida albicans, UniProt Q5AP53)	kinase binding, competitor, MIB/MS competition, item: CBK1	Candida albicans cell lysate	1 µM	baseline: DMSO	log2 fold change	0.024
O=C1c2ccccc2CCN1CCCCN1CCN(c2cccc(Cl)c2Cl)CC1	HTR1A (Homo sapiens, UniProt P08908)	radioligand binding	–	concentration not given, added: [3H]8-OH-DPAT	–	inhibition	99.5%
